Results collected from several papers.
Every numbered part comes from another study and shows a few of its results, in no order. Numbers after ± are the reported error.
UniProt P08603, sequence (whole entry, unmodified, looked up): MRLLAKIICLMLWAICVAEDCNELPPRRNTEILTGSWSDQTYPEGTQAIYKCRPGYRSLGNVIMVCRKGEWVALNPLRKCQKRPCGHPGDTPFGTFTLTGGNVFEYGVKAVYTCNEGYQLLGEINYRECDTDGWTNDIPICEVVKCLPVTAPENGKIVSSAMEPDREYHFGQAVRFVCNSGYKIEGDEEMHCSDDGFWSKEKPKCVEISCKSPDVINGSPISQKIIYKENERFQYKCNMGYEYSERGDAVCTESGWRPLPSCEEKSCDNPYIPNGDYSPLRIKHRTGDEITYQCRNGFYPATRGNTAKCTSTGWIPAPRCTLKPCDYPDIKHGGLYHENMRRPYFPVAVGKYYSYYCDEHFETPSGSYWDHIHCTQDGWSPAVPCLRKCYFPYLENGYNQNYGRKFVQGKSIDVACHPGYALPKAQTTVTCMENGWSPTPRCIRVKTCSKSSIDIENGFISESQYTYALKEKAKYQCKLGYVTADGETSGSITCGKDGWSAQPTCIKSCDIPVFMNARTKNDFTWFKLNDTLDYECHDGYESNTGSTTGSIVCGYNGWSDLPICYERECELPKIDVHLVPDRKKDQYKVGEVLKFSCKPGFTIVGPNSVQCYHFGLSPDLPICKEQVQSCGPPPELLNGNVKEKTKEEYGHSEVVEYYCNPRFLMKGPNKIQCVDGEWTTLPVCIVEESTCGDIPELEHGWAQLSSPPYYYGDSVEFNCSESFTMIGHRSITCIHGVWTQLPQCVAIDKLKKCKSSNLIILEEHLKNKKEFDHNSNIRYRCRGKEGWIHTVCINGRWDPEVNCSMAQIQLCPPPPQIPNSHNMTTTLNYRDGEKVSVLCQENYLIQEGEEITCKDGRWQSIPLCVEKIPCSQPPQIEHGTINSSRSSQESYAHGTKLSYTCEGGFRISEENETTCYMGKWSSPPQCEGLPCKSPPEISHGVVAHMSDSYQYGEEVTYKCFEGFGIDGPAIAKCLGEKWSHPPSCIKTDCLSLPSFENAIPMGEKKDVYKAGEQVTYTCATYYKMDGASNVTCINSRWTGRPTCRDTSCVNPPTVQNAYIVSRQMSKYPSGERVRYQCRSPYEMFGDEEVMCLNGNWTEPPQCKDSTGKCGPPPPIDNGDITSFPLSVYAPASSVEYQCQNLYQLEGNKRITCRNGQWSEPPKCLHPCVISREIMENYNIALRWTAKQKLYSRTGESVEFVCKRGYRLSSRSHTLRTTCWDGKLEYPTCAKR

Study 1
Form: peptide
Cell line: tetramer-reactive CD8+ T cells
Species: unexposed HLA-B*07:02 subjects
Quantity: number of clonotypes
LATNNLVVM: 275
NATNVVIKV: 8
IRQEEVQEL: 3

Single results of other studies
cbpA fragment (Streptococcus pneumoniae) — ΔH (CFH 508-567 Y547A (Homo sapiens, UniProt P08603); ITC): -2.04 ± 0.2 kcal/mol
TFFRLFNRSFTGRRRRSVQWCA — protein level ratio (Streptococcus mutans; 2D-DIGE, item: amino acid ABC transporter ATPase; peptide, UA159; 20 µg/mL, 1 h; reference: water control): -4.51
TTTATAAAAAACCAATATATGTCTTGACACATGTAAAAAACGTTGTATAATG (dsDNA) — binding (niaR 1-174 K16A (Streptococcus mutans, UniProt Q8DVX8); EMSA; double-stranded DNA, one strand shown): binds

Some of these lines once more (study 1):
NATNVVIKV: 8
